# Experimental data collected from several papers.
# Each numbered part is a random draw from the data of one study; scales do not carry over between parts. Changes are numbered by the printed parent chain.
# Chain of UniProt Q15349 (whole entry, looked up): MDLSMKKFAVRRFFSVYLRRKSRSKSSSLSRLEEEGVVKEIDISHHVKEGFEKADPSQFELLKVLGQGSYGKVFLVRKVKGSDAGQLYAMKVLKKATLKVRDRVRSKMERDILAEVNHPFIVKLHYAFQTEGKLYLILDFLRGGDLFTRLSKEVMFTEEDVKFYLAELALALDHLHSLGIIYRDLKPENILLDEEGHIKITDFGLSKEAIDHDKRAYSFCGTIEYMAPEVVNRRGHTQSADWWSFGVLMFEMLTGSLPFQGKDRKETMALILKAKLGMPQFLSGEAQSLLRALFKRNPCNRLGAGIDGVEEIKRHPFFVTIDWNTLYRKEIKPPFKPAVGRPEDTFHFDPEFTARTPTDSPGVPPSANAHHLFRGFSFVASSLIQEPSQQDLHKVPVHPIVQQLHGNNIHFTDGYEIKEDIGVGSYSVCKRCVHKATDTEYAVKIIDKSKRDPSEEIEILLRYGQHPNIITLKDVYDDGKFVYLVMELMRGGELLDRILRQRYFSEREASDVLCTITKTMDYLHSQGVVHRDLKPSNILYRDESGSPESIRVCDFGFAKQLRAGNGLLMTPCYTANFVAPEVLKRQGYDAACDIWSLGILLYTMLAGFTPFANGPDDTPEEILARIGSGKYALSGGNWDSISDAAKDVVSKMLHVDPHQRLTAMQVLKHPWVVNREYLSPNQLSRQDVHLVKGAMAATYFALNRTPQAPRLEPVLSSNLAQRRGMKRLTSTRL

# Set 1
# Target: Interferon regulatory factor 7, full length, phosphomimetic (IRF7, Homo sapiens, UniProt Q92985, residues 1-503, S471D/S472D/S475D/S476D/S477D/S483D/S484D/S487D)
# Chain of UniProt Q92985 (whole entry, unmodified, looked up): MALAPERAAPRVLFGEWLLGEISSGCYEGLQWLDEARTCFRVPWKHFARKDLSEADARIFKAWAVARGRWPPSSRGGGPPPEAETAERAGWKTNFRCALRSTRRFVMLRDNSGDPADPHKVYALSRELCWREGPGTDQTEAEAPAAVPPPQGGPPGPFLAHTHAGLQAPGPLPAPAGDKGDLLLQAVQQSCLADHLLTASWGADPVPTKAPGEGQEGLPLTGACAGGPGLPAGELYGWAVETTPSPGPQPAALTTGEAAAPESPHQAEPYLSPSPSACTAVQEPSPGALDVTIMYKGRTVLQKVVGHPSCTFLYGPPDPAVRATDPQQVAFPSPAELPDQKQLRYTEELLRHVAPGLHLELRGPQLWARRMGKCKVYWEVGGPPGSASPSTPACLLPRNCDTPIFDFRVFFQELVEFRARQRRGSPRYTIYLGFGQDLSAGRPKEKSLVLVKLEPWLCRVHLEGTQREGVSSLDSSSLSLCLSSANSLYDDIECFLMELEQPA
# Technique: protein-binding microarray
# Form: double-stranded DNA, one strand shown
# Sample: in vitro
# Tested at: 2200 nM top
# Setting: 60-bp whole probe
# Added: salmon DNA 0.4 mg/ml
# Relative to: random background probes
# Reading: higher = stronger binding
# Constant ends, left off below: GCCTAGCAC … GTCTTGATTCGCTTGACGCTGCTG
Sequence,fitted relative affinity [z-score]
TTAGAACTGGGGTATCGATTGGTGCTA,0.158
CACGATTTCAGACTGGAGACGTGCTAG,0.778
CACGGTATCCTTATCCTGACGTGCTAG,1.03
TTAGATATCACTCTCGATTAGTGCTAG,0.543
GAGGGTATCGACTATCGGGACGTGCTA,-0.592
TTAGAAATCAGTATCGATTAGTGCTAG,-0.502
TTCGGTATCCTACTGCTTTAGTGCTAG,1.65
GACGATTCCAGTTTCAAGACGTGCTAG,1.26

# Set 2
# Target: CCNF, cyclin fold, Cln2 fusion (human)
# Technique: yeast growth competition, sequencing
# Sample: yeast
# Setting: strong parent motif
# Relative to: not given
# Reading: higher = stronger binding
# Starting sequence: RB1 docking peptide (human); PKPLKKLRFDIEG
Variant,normalised enrichment score
PNPLKKLRFDIEG [K2N],0.525
PKALKKLRFDIEG [P3A],1.56
PKPLKKLSFDIEG [R8S],1.92
PKPLKKFRFDIEG [L7F],0.255
PKPLKKLRFDIEK [G13K],1.58
PKPLKKLRFDIQG [E12Q],0.688
PKPLKKLRFDKEG [I11K],1.14
PKPLKKLRHDIEG [F9H],0.605

# Set 3
# Target: Prothrombin, mature alpha-thrombin (F2, Homo sapiens, UniProt P00734)
# Technique: aptamer microarray, sandwich
# Form: DNA with 2'F-ANA
# Sample: in vitro
# Tested at: 200 nM
# Setting: whole 15-mer aptamer, many near background
# Added: Cy3 exosite-II aptamer, 400 nM
# Reading: higher = stronger binding
# Sequence: GGTTGGTGTGGTTGG
Modification,mean fluorescence intensity [a.u.]
2'F-ANA at 2 6 7 8 9 14 15,135
2'F-ANA at 4 6 7 8 10 13,73.9
2'F-ANA at 1 2 3 5 8 12 15,134
2'F-ANA at 2 5 9 11 12 14,45.5
2'F-ANA at 4 5 6 7 8 9,79.3
2'F-ANA at 1 2 4 5 6 10 12 13 15,50.4
2'F-ANA at 1 2 3 6 7 8 10 12 13 14 15,58.9
2'F-ANA at 2 3 7 9 11 12 14,467

# Mixed results
Compound,target,observed,technique,tested at,measurement,result
C[C@H](NC(=O)c1cnc2n1[C@](C)(Cc1ccc(C#N)cc1)C(=O)N2c1cc(Cl)c(F)c(Cl)c1)C(=O)NC1(c2ccccn2)CC1,"Ribosomal protein S6 kinase alpha-2, C-terminal kinase domain (RPS6KA2, Homo sapiens, UniProt Q15349)",cell-free assay,competition with immobilised ligand,1 µM,remaining binding,94%

# A few entries again (set 3):
Modification,mean fluorescence intensity [a.u.]
2'F-ANA at 2 5 9 11 12 14,45.5
2'F-ANA at 1 2 4 5 6 10 12 13 15,50.4
2'F-ANA at 4 5 6 7 8 9,79.3
2'F-ANA at 2 6 7 8 9 14 15,135
